Experimental data of several laboratories.
± gives the spread as reported.
AMC4: Metacaspase-4 (AMC4, Arabidopsis thaliana, UniProt O64517)
Sequence of UniProt O64517 (whole entry, looked up): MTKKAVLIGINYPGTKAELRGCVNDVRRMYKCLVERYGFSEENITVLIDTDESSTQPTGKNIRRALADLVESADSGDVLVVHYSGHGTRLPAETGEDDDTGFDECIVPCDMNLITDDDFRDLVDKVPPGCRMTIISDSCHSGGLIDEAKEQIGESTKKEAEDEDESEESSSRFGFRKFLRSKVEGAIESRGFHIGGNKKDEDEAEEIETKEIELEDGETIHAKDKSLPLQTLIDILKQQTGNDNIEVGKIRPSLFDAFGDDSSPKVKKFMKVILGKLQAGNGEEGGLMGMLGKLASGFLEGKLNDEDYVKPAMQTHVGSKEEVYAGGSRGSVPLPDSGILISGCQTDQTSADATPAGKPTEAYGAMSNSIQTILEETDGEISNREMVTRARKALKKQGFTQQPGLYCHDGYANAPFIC
4'-phosphopantetheinyl transferase PptT: 4'-phosphopantetheinyl transferase PptT (Mycobacterium tuberculosis, UniProt O33336)
Sequence of UniProt O33336 (whole entry, looked up): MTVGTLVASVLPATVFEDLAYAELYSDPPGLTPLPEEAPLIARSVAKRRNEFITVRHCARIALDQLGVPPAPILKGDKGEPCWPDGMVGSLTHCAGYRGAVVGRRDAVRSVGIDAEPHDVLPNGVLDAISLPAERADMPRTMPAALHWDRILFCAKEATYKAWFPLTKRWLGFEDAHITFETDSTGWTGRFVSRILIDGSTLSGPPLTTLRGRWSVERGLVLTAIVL
Slc6a4: Sodium-dependent serotonin transporter (Slc6a4, Rattus norvegicus, UniProt P31652)
Sequence of UniProt P31652 (whole entry, looked up): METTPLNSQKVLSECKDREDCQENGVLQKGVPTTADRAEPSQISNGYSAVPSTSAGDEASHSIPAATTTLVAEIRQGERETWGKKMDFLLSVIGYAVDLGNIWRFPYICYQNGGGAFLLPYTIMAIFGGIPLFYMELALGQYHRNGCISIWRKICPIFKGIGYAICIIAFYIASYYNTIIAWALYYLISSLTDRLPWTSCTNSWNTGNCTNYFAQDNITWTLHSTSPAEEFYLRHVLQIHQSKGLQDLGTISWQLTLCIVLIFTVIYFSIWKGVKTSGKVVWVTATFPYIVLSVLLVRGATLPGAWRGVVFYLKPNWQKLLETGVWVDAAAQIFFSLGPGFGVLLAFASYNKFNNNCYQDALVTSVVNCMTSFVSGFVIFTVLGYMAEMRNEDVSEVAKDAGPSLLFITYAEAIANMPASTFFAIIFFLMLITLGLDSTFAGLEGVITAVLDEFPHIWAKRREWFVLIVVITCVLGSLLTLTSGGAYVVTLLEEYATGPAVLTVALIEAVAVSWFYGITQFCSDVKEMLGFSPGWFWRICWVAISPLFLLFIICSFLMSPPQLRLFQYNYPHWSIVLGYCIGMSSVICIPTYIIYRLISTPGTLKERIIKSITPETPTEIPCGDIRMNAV
Sequence of UniProt Q9HAC7 (whole entry, looked up): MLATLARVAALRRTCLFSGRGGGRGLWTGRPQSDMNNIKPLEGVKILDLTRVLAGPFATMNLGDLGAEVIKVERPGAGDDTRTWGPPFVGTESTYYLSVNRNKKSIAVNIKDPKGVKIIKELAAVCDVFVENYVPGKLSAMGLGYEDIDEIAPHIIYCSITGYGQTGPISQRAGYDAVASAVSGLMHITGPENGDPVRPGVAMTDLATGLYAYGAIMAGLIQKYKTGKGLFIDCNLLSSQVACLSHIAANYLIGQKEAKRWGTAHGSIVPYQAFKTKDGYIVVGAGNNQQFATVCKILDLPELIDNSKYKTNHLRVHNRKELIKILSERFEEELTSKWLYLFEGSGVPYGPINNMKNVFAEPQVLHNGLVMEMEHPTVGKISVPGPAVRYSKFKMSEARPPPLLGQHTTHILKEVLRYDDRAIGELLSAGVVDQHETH
Sequence of UniProt P00346 (whole entry, looked up): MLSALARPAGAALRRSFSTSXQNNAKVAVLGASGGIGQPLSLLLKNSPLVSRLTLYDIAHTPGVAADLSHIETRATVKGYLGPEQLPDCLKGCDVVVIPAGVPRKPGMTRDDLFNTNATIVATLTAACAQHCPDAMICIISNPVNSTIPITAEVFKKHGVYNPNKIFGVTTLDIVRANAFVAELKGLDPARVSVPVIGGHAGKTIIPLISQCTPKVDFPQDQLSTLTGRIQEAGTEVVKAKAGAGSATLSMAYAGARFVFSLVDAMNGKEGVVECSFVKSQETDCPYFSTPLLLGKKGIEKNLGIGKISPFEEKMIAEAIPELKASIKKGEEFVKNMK

With `CCCCC(=O)N(Cc1ccc(-c2ccccc2-c2nnn[nH]2)cc1)[C@H](C(=O)O)C(C)C` the IC50 was 12.1 µM (Succinyl-CoA:glutarate CoA-transferase (SUGCT, Homo sapiens, UniProt Q9HAC7); enzyme activity, inhibitor, fluorometric coupled; pH 7.44, KCl-HCl buffer).
`O=C1NC(=S)N(c2ccccc2)C(=O)C1=Cc1ccc(-c2ccc(C(=O)O)c(Cl)c2)o1` gave an IC50 of > 200 µM (AMC4; enzyme activity, inhibitor; pH 7.5, 50 mM CaCl2, with: VRPR-AMC 50 µM).
`CCCCCc1cc(O)c(C/C=C(\C)CCC=C(C)C)c(O)c1C(=O)O` gave an IC50 of 50 µM (MDH2 (Sus scrofa, UniProt P00346)).
`CCNC(=N)NC(=O)Nc1ccc2c(c1)OCO2` has an IC50 of > 100 µM (4'-phosphopantetheinyl transferase PptT; inhibitor).
The IC50 of `O=C1NC(=S)N(c2ccc(Cl)cc2)C(=O)C1=Cc1ccc(I)o1` is reported as 29 µM (AMC4; enzyme activity, inhibitor; pH 7.5, 50 mM CaCl2, with: VRPR-AMC 50 µM).
`CCC(C(=O)c1ccc2c(c1)OCO2)N(C)C` (stereo not drawn) gave an IC50 of > 10 µM (Slc6a4; rat).
The IC50 of `CCNc1c(NC(=O)Nc2c(CC)cccc2CC)c(=O)c1=O` is reported as > 100 µM (4'-phosphopantetheinyl transferase PptT; inhibitor).
For `CCCC(NC)C(=O)c1ccc2c(c1)OCO2` (racemic), the IC50 was 1.24 ± 0.14 µM (Slc6a4; serotonin uptake, inhibitor; rat brain synaptosomes; with: [3H]5-HT 5 nM).
`CCNC(=NC#N)NC(=O)Nc1c(CC)cccc1CC` has an IC50 of > 100 µM (4'-phosphopantetheinyl transferase PptT; inhibitor).
The IC50 of `O=C1NC(=S)N(c2cccc(Cl)c2)C(=O)C1=Cc1ccc2c(c1)OCO2` is reported as 41 µM (AMC4; enzyme activity, inhibitor; pH 7.5, 50 mM CaCl2, with: VRPR-AMC 50 µM).
For `CCNC(=N)NC(=O)Nc1ccccc1CN1CCCCC1`, the IC50 was > 100 µM (4'-phosphopantetheinyl transferase PptT; inhibitor).
`Cc1nc2ccc(CN(C)c3ccc(C(=O)N[C@@H](CCC(=O)O)C(=O)O)s3)cc2c(=O)[nH]1` has an IC50 of 0.054 µM (4'-phosphopantetheinyl transferase PptT; enzyme activity, inhibitor, fluorescence polarization; enzyme 100 nM).

Excerpt of the above:
The IC50 of `CCNc1c(NC(=O)Nc2c(CC)cccc2CC)c(=O)c1=O` is reported as > 100 µM (4'-phosphopantetheinyl transferase PptT; inhibitor).
